Experimental data from different studies.
Parts stem from different laboratories: compare values within a part only. Substitutions count along the parent as printed.

Sample 1
Target: Sal-like protein 4, full length isoform A (SALL4, Homo sapiens, UniProt Q9UJQ4, residues 1-1053)
Chain of UniProt Q9UJQ4 (whole entry, looked up): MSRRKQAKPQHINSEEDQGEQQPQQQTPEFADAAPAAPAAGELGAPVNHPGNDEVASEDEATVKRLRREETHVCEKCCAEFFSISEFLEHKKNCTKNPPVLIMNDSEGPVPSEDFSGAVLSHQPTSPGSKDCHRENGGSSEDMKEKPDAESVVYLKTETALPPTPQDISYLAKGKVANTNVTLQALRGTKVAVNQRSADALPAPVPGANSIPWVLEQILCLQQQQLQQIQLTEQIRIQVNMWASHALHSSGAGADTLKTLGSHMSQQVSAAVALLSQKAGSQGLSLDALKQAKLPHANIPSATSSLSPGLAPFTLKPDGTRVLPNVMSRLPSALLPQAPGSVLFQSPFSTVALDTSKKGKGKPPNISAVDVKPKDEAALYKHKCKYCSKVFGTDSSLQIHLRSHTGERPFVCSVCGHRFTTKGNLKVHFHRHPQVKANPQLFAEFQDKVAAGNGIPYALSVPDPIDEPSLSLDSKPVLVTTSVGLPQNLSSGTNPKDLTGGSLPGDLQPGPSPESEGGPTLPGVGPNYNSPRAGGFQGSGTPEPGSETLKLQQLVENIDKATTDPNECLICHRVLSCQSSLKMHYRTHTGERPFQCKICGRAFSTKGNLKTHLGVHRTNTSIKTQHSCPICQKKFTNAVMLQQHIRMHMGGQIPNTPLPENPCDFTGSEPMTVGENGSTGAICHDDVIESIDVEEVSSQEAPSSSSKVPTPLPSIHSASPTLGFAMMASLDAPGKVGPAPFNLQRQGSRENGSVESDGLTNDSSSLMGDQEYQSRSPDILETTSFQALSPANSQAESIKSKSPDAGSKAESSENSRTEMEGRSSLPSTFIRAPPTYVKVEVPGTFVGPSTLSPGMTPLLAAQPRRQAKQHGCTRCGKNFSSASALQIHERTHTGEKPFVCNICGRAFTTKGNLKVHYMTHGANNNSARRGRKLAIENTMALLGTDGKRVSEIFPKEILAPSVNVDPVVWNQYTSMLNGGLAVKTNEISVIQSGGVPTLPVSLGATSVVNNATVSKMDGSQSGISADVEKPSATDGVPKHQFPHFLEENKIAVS
Technique: universal PBM
Molecule type: double-stranded DNA, one strand shown
Medium: in vitro
Concentration: 600 nM
Notes: 8-mer, flanks averaged, mean of replicates
Reading: higher = stronger binding
Measurement: E-score
CTGGAAAC: 0.0914
GAGCAAAC: 0.00168
GAGGGTGA: -0.268
GGAATTAC: 0.0686
CGCTCGCC: -0.309
GTAGCGAA: 0.026
CATCGGTA: 0.0593
TAAAACGA: 0.0899
CGATATTC: 0.0661
CATGTGAA: 0.00178
AATTCTGT: 0.212

Sample 2
Target: CCNB2, cyclin fold, Cln2 fusion (human)
Technique: yeast growth competition, sequencing
Medium: yeast
Notes: weak parent motif
Relative to: not given
Reading: higher = stronger binding
Measurement: normalised enrichment score
Starting sequence: PKN2 docking peptide (human); VSAVQKLDFSDTM
K6F: -0.391
K6D: -0.563
V1T: 0.182
D8K: 0.0396
M13R: 0.381
S10H: -0.126
D8T: -0.246

Sample 3
Target: Prothrombin, mature alpha-thrombin (F2, Homo sapiens, UniProt P00734)
Technique: aptamer microarray, sandwich
Molecule type: DNA with 2'F-ANA
Medium: in vitro
Concentration: 200 nM
Notes: whole 15-mer aptamer, many near background
With: Cy3 exosite-II aptamer, 400 nM
Reading: higher = stronger binding
Measurement: mean fluorescence intensity
Sequence: GGTTGGTGTGGTTGG
2'F-ANA at 3 6 7 9 14 15: 500 a.u.
2'F-ANA at 1 7 8 9 10 11 13 15: 54.1 a.u.
2'F-ANA at 2 3 6 7 9 10 11 13 15: 328 a.u.
2'F-ANA at 2 5 7 8 9 10 11 12 13 15: 50.3 a.u.
2'F-ANA at 1 2 3 5 7 11 12 13 15: 73.8 a.u.
2'F-ANA at 1 3 7 8 10 11 13: 80.1 a.u.
2'F-ANA at 3 4 5 9 12 14 15: 55 a.u.
2'F-ANA at 1 6 7 9 12 15: 264 a.u.
2'F-ANA at 1 2 4 8 9 10 12 13: 53.8 a.u.
2'F-ANA at 1 2 4 5 6 8 10 13: 62.9 a.u.
2'F-ANA at 5 8 9 10 13 14: 68 a.u.

Single results of other studies
PhoQ, residues 284 288 289 292 302 303 SVHLDV — fold induction (PhoP, residues 12 14 15 18 19 NMSFL (Escherichia coli, UniProt P23836); Sort-seq, item: YFP reporter; E. coli; PhoQ-PhoP variant library, with: 10 µM Mg2+; relative to: high Mg2+ state, higher = stronger signaling): 22
